Measured values of several laboratories.
Protocols differ between the studies behind these lines.

`CC(C)C[C@H](NC(=O)[C@H](CC(N)=O)NC(=O)[C@@H](NC(=O)[C@H](C)NC(=O)[C@@H](NC(=O)[C@H](CCC(=O)O)NC(=O)[C@H](CC(C)C)NC(=O)[C@H](CCCCN)NC(=O)[C@H](CCCCN)NC(=O)[C@H](CCC(=O)O)NC(=O)[C@H](Cc1c[nH]c2ccccc12)NC(=O)[C@@H](NC(=O)[C@H](Cc1c[nH]c2ccccc12)NC(=O)[C@H](CO)NC(=O)CNC(=O)CNC(=O)[C@H](CCCNC(=N)N)NC(=O)[C@H](CCCNC(=N)N)NC(=O)[C@H](CCCNC(=N)N)NC(=O)[C@H](CCC(N)=O)NC(=O)[C@H](CCCNC(=N)N)NC(=O)[C@H](CCCNC(=N)N)NC(=O)[C@H](CCCCN)NC(=O)[C@H](CCCCN)NC(=O)[C@@H](N)CCCNC(=N)N)[C@@H](C)O)[C@@H](C)O)C(C)C)C(=O)N[C@@H](C)C(=O)N[C@@H](Cc1c[nH]c2ccccc12)C(=O)N[C@H](C(=O)N[C@@H](C)C(=O)NCC(=O)N[C@@H](CC(N)=O)C(=O)N[C@@H](CO)C(=O)N[C@@H](CC(N)=O)C(=O)N[C@@H](CCCCN)C(=O)N[C@@H](Cc1c[nH]c2ccccc12)C(=O)N[C@H](C(=O)N[C@@H](Cc1c[nH]c2ccccc12)C(=O)N[C@@H](CCCCN)C(=O)O)[C@@H](C)O)[C@@H](C)O` has an IC50 of greater than 10000 nM (MEC1; cell growth or viability, flow cytometry; 90 min).
For `CC(C)C12OC1C1OC13C1(C)CCC4=C(COC4=O)C1CC1OC13C2OC(=O)CCC(=O)OC1OC(CO)C(O)C(O)C1O` (stereo not drawn), the IC50 was 2670 nM (RPMI-7951; cell growth or viability, XTT; 47 h).
`CC[C@H](C)[C@@H]([C@@H](CC(=O)N1CCC[C@H]1[C@H](OC)[C@@H](C)C(=O)N[C@H](C)[C@@H](O)c1ccccc1)OC)N(C)C(=O)[C@@H](NC(=O)[C@H](C(C)C)N(C)C(=O)OCc1ccc(NC(=O)[C@H](CCCNC(N)=O)NC(=O)[C@@H](NC(=O)CCCc2cn(CC(=O)N[C@@H](CCCCNC(=O)CC[C@H](NC(=O)c3ccc(NCc4cnc5nc(N)[nH]c(=O)c5n4)cc3)C(=O)O)C(=O)NCCCC[C@H]3NC(=O)[C@H](CCCCN)NC(=O)[C@H](CCCNC(N)=O)NC(=O)[C@H](Cc4ccc(O)cc4)NC(=O)[C@@H](NC(=O)[C@H](Cc4ccc5ccccc5c4)NC(=O)[C@H](CCCNC(=N)N)NC(=O)[C@@H](N)CCCNC(=N)N)CSSC[C@@H](C(=O)N[C@@H](CCCNC(=N)N)C(N)=O)NC(=O)[C@H](CCCNC(N)=O)NC(=O)[C@H](CCCNC(=N)N)NC(=O)[C@H](Cc4ccc(O)cc4)NC(=O)[C@@H]4CCCN4C3=O)nn2)C(C)C)cc1)C(C)C` has an IC50 of 512 nM (Daudi; cell growth or viability, CCK-8).
For `O[C@]12C=C(c3nccc4c3[nH]c3ccccc34)[C@@H]3CCN(CCCC/C=C\CC1)C[C@@]31C[C@@H]3/C=C\CCCCN3[C@H]12`, the IC50 was 1 µg/mL (SK-MEL; cell growth or viability, neutral red; 48 h).
`CC(=O)N[C@H](C(=O)N[C@@H](CCCNC(=N)N)C(=O)N[C@@H](CCCCN)C(=O)N[C@@H](CCCNC(=N)N)C(=O)N[C@H](C(=O)N[C@@]1(C)CCCC=CCCC[C@@](C)(C(=O)N[C@@H](CCC(N)=O)C(=O)N[C@@H](CCC(=O)O)C(=O)N[C@@H](CCCNC(=N)N)C(=O)N[C@@H](CCC(=O)O)C(=O)N[C@@H](CC(C)C)C(=O)N[C@H](C(=O)N[C@@H](CCC(=O)O)C(N)=O)C(C)C)NC(=O)[C@H](CC(C)C)NC(=O)[C@H](CCCNC(=N)N)NC(=O)[C@H](CCCNC(=N)N)NC1=O)[C@@H](C)O)C(C)C` has an IC50 of greater than 50000 nM (A-431 (wild-type EGFR); cell viability; 18 h).
For `CC(C)CCC[C@@H](C)[C@H]1CC[C@H]2[C@@H]3CC=C4C[C@@H](OC(=O)NCCCN(C)CCCNC(=O)Oc5ccc6c7c(c(NCCN(C)C)nc6c5)C(=O)c5ccccc5-7)CC[C@]4(C)[C@H]3CC[C@]12C`, the IC50 was roughly 175 nM (ARPE-19; cytotoxicity, CCK-8; 48 h).
`Cc1cc(Oc2nc(N3CC[C@@H](c4ccncc4)C3)ncc2F)[nH]n1` gave an IC50 of greater than 100000 nM (EJ-28; cell proliferation; bladder cancer).
For `COc1ccc(NC(=O)c2ccc3[nH]c(-c4ccc(N(C)C)cc4)nc3c2)cn1`, the IC50 was 6900 nM (HCT-116; cell death).
For `Cc1cc(Nc2nc(C[C@@]3(C(=O)O)CCN(Cc4cccc(Cl)c4F)[C@H](C)C3)cc(C)c2F)[nH]n1`, the IC50 was 103 nM (SW948; cell growth or viability, ATP luminescence; 5 days).

A few entries again:
For `Cc1cc(Nc2nc(C[C@@]3(C(=O)O)CCN(Cc4cccc(Cl)c4F)[C@H](C)C3)cc(C)c2F)[nH]n1`, the IC50 was 103 nM (SW948; cell growth or viability, ATP luminescence; 5 days).
